Published values pooled from the literature.
Numbered parts are unrelated; each lists some results of a single study. Changes are numbered by the printed parent chain.

Set 1 — method: RNA Bind-n-Seq; form: RNA; matrix: in vitro; tested at: not given; setting: RNA with constant flanks, ends assumed; relative to: input RNA pool; reading: higher = stronger binding
Target: RING finger protein unkempt homolog, zinc fingers 1-6, GST-SBP tag (UNK, Homo sapiens, UniProt Q9C0B0, residues 30-357)
Chain of UniProt Q9C0B0 (30-357, looked up): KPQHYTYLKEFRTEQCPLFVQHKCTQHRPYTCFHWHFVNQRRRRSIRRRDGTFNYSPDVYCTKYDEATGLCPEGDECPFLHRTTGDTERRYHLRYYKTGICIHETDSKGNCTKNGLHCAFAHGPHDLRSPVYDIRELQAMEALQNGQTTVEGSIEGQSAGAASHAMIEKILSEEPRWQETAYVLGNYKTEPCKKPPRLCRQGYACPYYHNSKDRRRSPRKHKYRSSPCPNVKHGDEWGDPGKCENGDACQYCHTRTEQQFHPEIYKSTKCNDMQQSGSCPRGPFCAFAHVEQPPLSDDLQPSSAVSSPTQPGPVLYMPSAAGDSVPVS
Shared flanks, not repeated: GGGAGUUCUACAGUCCGACGAUC … CAACAGAGGAUUGAGCAUCA
Oligonucleotide | bound/input enrichment [ratio]
UACAUUUUACACUGUUGGUUUGUAUUUUUGUAUGUUUAUGGUGUCUGCUUGCCUGUGUCUUUCCGUAAAAUAAGACUUUAAAAUUACUUAGCAUGCUAUUUAACAUUUUCUAAAAAUUAU | 5.15
UCAGAUAACCUUACCCGGGCUUGUAGCCUAGUGCGGGAGGCAGCAAAGCAAGGUGCCAACACCGUUUCUCUGCCUGAGUGCUUCAAUUCUCCAUAUGGAACAACCUACUUUCCUGACUAU | 0.13
CAAGUACAUCUUGGUGUUAGUGAUGAUCUUGGAUUGCUUGCUCACAUGACCGGUAGCGCCGACUUAACUUGUACAUCCAGUAUAAUAGAAGAAAAAGAAUUCAAAAUCCAUACAACUUCA | 0.628
AAAGGGAAAUCUGUCCGUGUUCAUGUACAGUUCUUUGAUGACAGCCCAACAAGGGGCUGGGUCCGCAAAAGGAUGUUAAAGCCAUAUACAGGUUCAAAGUCAAAGGAAGCCCAAAAGGGA | 0.16
GAGACGGUGGAGGAAGAGAAGAGCCAGUCAGAUGUGGAUUUUCAGUCGUGCGAGUCUUGCCGCAGCAGCGAGAAAGCAGAAAAUGAGAGUGGCUCCAAAGGCUUUCCUGAGGACAGCAAU | 0.232
AUCGUGGAGUAUCAGAAUAAGGGCCGAGCGAACGAGUGCGUCCAGUAUCAGCAUGUGUUACACCGAAAUCUCAUUUAUUUAGCUACCAUCGCAGACGCCAACACAAGCAGUCUCACAAAG | 0.278
CGCCUGGAUGAGGCUGGUGUUACUGAUGAAGUGCUGGAUUCUGCCAUGCAAGCCUUCUUACCCGAAAUUAUCGUUAAGCAUGGGGAGCCAGCCCCUUAUUUAUGUAAUAAAGAUCCUUUU | 0.204
GUGCUUUUAUUACUUUCAUCUAUACACUUCCAGUGUCGAAGGCUGGACAGAUCUGCUCACUUCCGCACUCUGGCAAUUAAACAGAACCCCCUUCUGGCAGAAGCUUAUUCGAAUUUGGGG | 0.173
UACAGAGGAAGGGGUAGAGGGUAUUAUCAAGGAGGAGGAGGUAGAUAUCAUCGAGGUGGUUACCGACCUGUCUGGAAUAGAAGGCACUCUAGGAGUCCUAGACGAGGUCGUUCACGUUCC | 0.232
UGAGCUGCCGAAGCCGCUGCCCUGCUCUCCGUCGCGGGCUCCUUUAAUCCCAUUGUUUCUUUCCGAUUCGCUUGGGCCUAGACGCCCUCGGGGCCCGAUAUUCGGGUUGGGCGGUACCGC | 0.22
AUGUUUGAACGUGUUUCAGAUGUCAUGUGUUUAGUUUUUAUAUGUGUGUACAUAAUUAUAUACCGAGAUAGACUUGUGUAUACACCUUCCACAAACACAUCCUCACGGAGAUACAUGUGC | 0.311

Set 2 — method: RNA Bind-n-Seq; form: RNA; matrix: in vitro; tested at: 200 nM; setting: whole 134-nt RNA, ends assumed; with: 150 mM LiCl; relative to: input library; reading: higher = stronger binding; library: 7-deaza-guanosine replaces G
Target: Fragile X messenger ribonucleoprotein 1, C-terminal low-complexity region (Fmr1, Mus musculus, UniProt P35922)
Shared flanks, not repeated: GGGAGUUCUACAGUCCGACGAUC … UGGAAUUCUCGGGUGUCAAGG
Oligonucleotide | log2 enrichment
UCCUGUGCUACACAUCGUAUGUACCGAAUCGGGGAAAGGGGUUUGGGGUUUUUUUGGGGAAAGUAUUAUGUUACGCCGUUCGGAUCUGCA | -0.815
AAGUCCUGUGCUACACAUCGUAUGUACCGAAUCGGGGAAAAGGAAAAGGGAAAAGGAAAGUAUUAUGUUACGCCGUUCGGAUCUGCACUU | -0.908
CACAGACAACACGCACCCACACAGACACAGAGGGAAGUGGUUGGGAUGGGGACAGGGUGCACAGCAGGGCGGGGUAGGACCCCAGCCCCU | -1.44
UAACUUUAGAGGAGGAUCUGAUGGAUAUGGCAGUGGACGUGGAUUUGGGGAUGGCUAUAAUGGGUAUGGAGGAGGACCUUGAGGUGGCAA | 0.256
AGUCCUGUGCUACACAUCGUAUGUACCGAAUCGGGAAAGGGUUUUUGGGAAAAAGGGAAAGUAUUAUGUUACGCCGUUCGGAUCUGCACU | -1.77
AGUCCUGUGCUACACAUCGUAUGUACCGAAUCGGAAAGGAAAAAAAGGUUUUUUUGGAAAGUAUUAUGUUACGCCGUUCGGAUCUGCACU | -2.77
UGCUGUGUCACCGGGAACGCAAAGGCUGGGAAGAAGGCCCUUCUCAAAAUGGACUGGUGUUGCAGGGUGAGAAGCUGCCCCCUGACUUCA | -0.26
UGGGAGGUGGAUUUUGUUUAUUUUUUUAGCUCAUUUCCAGGGGUGGGGAUUUUUUUUUAAUAUGUGUCAUGAAUAAAGUUGUUUUUGAAA | 0.13
UCAAGUCCUGUGCUACACAUCGUAUGUACCGAAUCGGGAAGGGAAGGGAAGGGGAAAGUAUUAUGUUACGCCGUUCGGAUCUGCACUUCC | -0.932
GCAGGAAGUAAAAACAAAUGGAAAUGCUUCGGAUAGUGGCAGGGAAAGGGGUUGCUAAGGAAAGGGUGGGAUGGGAGUGGGUAAAGAGUU | 1.31
UGGCCCUGGUGGCAUGCGGGGAGGAAGAGGGGGCCUCAUGGAUCGUGGUGGUCCCGGUGGAAUGUUCAGAGGUGGCCGUGGUGGAGACAG | 0.0706

Set 3 — target: CCNB2, cyclin fold, Cln2 fusion (human); method: yeast growth competition, sequencing; matrix: yeast; setting: weak parent motif; relative to: not given; reading: higher = stronger binding
Parent: PKN2 docking peptide (human); VSAVRKLDFSDTM; partner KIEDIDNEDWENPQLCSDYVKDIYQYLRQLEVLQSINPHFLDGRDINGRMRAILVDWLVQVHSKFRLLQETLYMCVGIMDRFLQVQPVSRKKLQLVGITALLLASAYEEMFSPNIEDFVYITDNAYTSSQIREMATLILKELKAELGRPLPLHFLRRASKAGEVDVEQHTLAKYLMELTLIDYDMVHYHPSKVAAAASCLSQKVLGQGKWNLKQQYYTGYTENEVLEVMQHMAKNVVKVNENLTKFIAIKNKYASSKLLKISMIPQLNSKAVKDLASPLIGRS
Variant | normalised enrichment score
L7R | 0.512
T12E | 1.33
R5E | -0.174
S2P | -0.00075
L7D | -0.235
S10E | 0.882
K6S | 0.0235
S2E | 0.359
S2L | 0.382
S2A | 0.0824
D8V | 0.188
R5Y | -0.289
K6C | 0.38
S10V | -0.271
A3C | 2.32
T12D | 1.07
T12S | 0.892
D11H | 0.331
K6N | 0.187
T12K | 0.933

Set 4 — method: protein-binding microarray; form: double-stranded DNA, one strand shown; matrix: in vitro; tested at: 0.8 µM; setting: whole 60-bp probe, no competitor; reading: higher = stronger binding; shared flanks, not repeated: … GTCTTGATTCGCTTGACGCTGCTG
Target: Centromere-binding protein 1, full length, N-terminal tag (CBF1, Saccharomyces cerevisiae, UniProt P17106, residues 1-351)
Chain of UniProt P17106 (whole entry, looked up): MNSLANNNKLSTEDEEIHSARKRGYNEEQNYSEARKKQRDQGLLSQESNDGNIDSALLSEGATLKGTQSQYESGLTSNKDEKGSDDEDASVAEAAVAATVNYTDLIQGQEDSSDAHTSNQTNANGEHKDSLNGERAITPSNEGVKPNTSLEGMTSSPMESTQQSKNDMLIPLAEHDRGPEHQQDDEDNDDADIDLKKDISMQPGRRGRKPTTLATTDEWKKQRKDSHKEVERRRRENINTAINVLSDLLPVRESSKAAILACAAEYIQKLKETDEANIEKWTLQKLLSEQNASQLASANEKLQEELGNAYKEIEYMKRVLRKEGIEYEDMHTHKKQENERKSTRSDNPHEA
Oligonucleotide | fluorescence intensity
CTAGTAATCAATACGGTGGTGACGACGATTACTTTC | 513 a.u.
CTAGTTGCCGCACACGTGTTGGTGCACGTTAAGTTC | 6640 a.u.
GAATTAGATTACGTGCAGGTGAGGTTATACAGATAG | 607 a.u.
CTATTTTATCACCGTCTCACCATATCCCACGACTTC | 544 a.u.
CTACAATTTACTCCCCATGTGGGAGTTCTACGTTTC | 555 a.u.
GAACTCCCCCTAAATCTCGTGATTAGAGTTTCATAG | 1750 a.u.
CCTAACTACTATAATCAGATTTTATAGCTTCGTACA | 536 a.u.
GAATTTGTTAGTGCTGATGTAATCTTAACAAGATAG | 566 a.u.
GAAAAGTGTTTTACCTACGTGACAGTAAGAGTATAG | 659 a.u.
TGTACGAAGCTATATCGCGTGTATATAGTAGTTAGG | 580 a.u.
CTAAATATGGAAAAAGTGATGACCATGATGCCTTTC | 545 a.u.
GAATGGAAACTCCGACGCGTGAGGCCTCGCGTCTAG | 522 a.u.
CCTAACTACTATACGGTGGTGATATAGCTTCGTACA | 515 a.u.
GAAATGCTAGTACAACACGTTTGGTTGAAAATTTAG | 506 a.u.
CTAACGGATACGCAACTGATGTTGTATAGAAATTTC | 493 a.u.
CTAATTGATTGGGTTCATGACACCCAGGGAAGTTTC | 519 a.u.
CTAAAGGCCAGTAGCAACAACACGTTTTCTTGGTTC | 614 a.u.
CTAATGACGGATCATCACCACACGAAGAATAAATTC | 558 a.u.
CTACAAGTGACTCGAGACCACGTGGAAAGATCCTTC | 5450 a.u.
CTATTGAGAACTAGTCATCAGATATAATAGAAGTTC | 528 a.u.
GAATTACAGATTTGTCACGTGATCAATATCACCTAG | 50700 a.u.
CTAGCAAGAATTACTCGTGAGTAAGGAAAGAGTTTC | 565 a.u.
GAATGCAGTGATTATCACGTGATCCGAACTGTTTAG | 37800 a.u.
GAACGCCGTCCTCATGATGTGTTAGTTATACGTTAG | 551 a.u.
GAAATATATTATGCTCACGTGATGACCACGTGATAG | 28800 a.u.

Further values, each from its own experiment
Molecule | target | test | system | conditions | scale | measurement | value
PhoQ, residues 284 288 289 292 302 303 SSYNSA | PhoP, residues 12 14 15 18 19 LHATL (Escherichia coli, UniProt P23836) | Sort-seq, refers to: YFP reporter | E. coli | PhoQ-PhoP variant library, with: 10 µM Mg2+ | relative to: high Mg2+ state, higher = stronger signaling | fold induction | 24

A few entries again (set 4):
Oligonucleotide | fluorescence intensity
GAAATGCTAGTACAACACGTTTGGTTGAAAATTTAG | 506 a.u.
CTAATGACGGATCATCACCACACGAAGAATAAATTC | 558 a.u.
CTAGTAATCAATACGGTGGTGACGACGATTACTTTC | 513 a.u.
CTAATTGATTGGGTTCATGACACCCAGGGAAGTTTC | 519 a.u.
